Measured values gathered from unrelated publications.
Protocols differ between the studies behind these lines. “And” joins repeats or separate records; there may be more than shown. ± marks the error that the study gave.

SMILES | test | system | setting | half-life
CCCC[C@H](NC(C)=O)C(=O)N[C@H]1CCC(=O)NC[C@@H](C(=O)N[C@@H](Cc2c[nH]c3ccccc23)C(N)=O)NC(=O)[C@H](CCCNC(=N)N)NC(=O)[C@@H](Cc2ccccc2)NC(=O)[C@H](Cc2c[nH]cn2)NC1=O |  | CD Sprague Dawley rat, male, plasma | subcutaneous, 1.0 mg/kg daily, day 1 | 0.868 h
CC(C)=CCC[C@](C)(O[C@@H]1O[C@H](CO)[C@@H](O)[C@H](O)[C@H]1O)[C@H]1CC[C@]2(C)[C@@H]1[C@H](O)C[C@@H]1[C@@]3(C)CC[C@H](O[C@@H]4O[C@H](CO)[C@@H](O)[C@H](O)[C@H]4O[C@@H]4O[C@H](CO)[C@@H](O)[C@H](O)[C@H]4O)C(C)(C)[C@@H]3CC[C@]12C |  | Sprague Dawley rat, male, plasma | oral, 42 mg/kg, white ginseng extract | 17.7 ± 4.9 h
CC(C)C[C@H]1C(=O)N2CCC[C@H]2[C@]2(O)O[C@](NC(=O)[C@@H]3C=C4c5cccc6[nH]c(Br)c(c56)C[C@H]4N(C)C3)(C(C)C)C(=O)N12 |  | male Sprague-Dawley rats, plasma | intravenous, 0.1 mg/kg, together with: DAL 1.7 mg/kg plus HAL 0.7 mg/kg | 0.401 ± 0.0783 h
CCC[C@@]1(CCc2ccccc2)CC(O)=C([C@H](CC)c2cccc(NS(=O)(=O)c3ccc(C(F)(F)F)cn3)c2)C(=O)O1 |  | Sprague Dawley rat, male, plasma | oral, 5 mg/kg, long-chain triglyceride formulation | 4.11 ± 0.4 h
O=C(O)/C=C/c1ccc(O)c(O)c1 | UPLC-MS/MS | Wistar rat, microcirculation dysfunction model, plasma | oral, 100 mg/kg Salvia miltiorrhiza stem-leaf extract FT | 15.9 ± 24.9 h
Cn1nnc2c(C(N)=O)ncn2c1=O | microdialysis | male athymic rat, intracranial U87 glioma, tumour extracellular fluid | oral, 50 mg/kg, before cediranib, recovery-corrected | 1.4 h and 1.6 h and 2.2 h
O=C(/C=C/c1ccc(O)c2c1[C@H](C(=O)O)[C@@H](c1ccc(O)c(O)c1)O2)O[C@H](Cc1ccc(O)c(O)c1)C(=O)O | UPLC-MS/MS | Wistar rat, microcirculation dysfunction model, plasma | oral, 100 mg/kg Salvia miltiorrhiza stem-leaf extract FT | 4.26 ± 7.35 h
CC(C)=CCC[C@](C)(O[C@@H]1O[C@H](CO[C@@H]2O[C@H](CO)[C@@H](O)[C@H](O)[C@H]2O)[C@@H](O)[C@H](O)[C@H]1O)[C@H]1CC[C@]2(C)[C@@H]1[C@H](O)C[C@@H]1[C@@]3(C)CC[C@H](O[C@@H]4O[C@H](CO)[C@@H](O)[C@H](O)[C@H]4O[C@@H]4O[C@H](CO)[C@@H](O)[C@H](O)[C@H]4O)C(C)(C)[C@@H]3CC[C@]12C |  | Sprague Dawley rats, plasma | oral, 100 mg/kg, control group sterile water | 15.5 ± 1.58 h
CCN1CCN(c2ccc(Nc3cc(N(C)C(=O)Nc4c(Cl)c(OC)cc(OC)c4Cl)ncn3)cc2)CC1 | LC-MS/MS | juvenile male Crl:WI(Han) rats, plasma | oral gavage, 1.0 mg/kg/day, postnatal day 17 | 3.67 h
CCN(CC)Cc1cc(Nc2ccnc3cc(Cl)ccc23)ccc1O |  | rat, Wistar, male, plasma | oral, 60 mg/kg, together with: myricetin 5 mg/kg iv | 2.49 ± 0.85 h
CC(C)=CCC[C@](C)(O[C@@H]1O[C@H](CO)[C@@H](O)[C@H](O)[C@H]1O)[C@H]1CC[C@]2(C)[C@@H]1[C@H](O)C[C@@H]1[C@@]3(C)CC[C@H](O)C(C)(C)[C@@H]3[C@@H](O[C@@H]3O[C@H](CO)[C@@H](O)[C@H](O)[C@H]3O)C[C@]12C |  | Sprague Dawley rat, male, plasma | oral, 25 mg/kg, white ginseng extract | 32.2 ± 4.1 h
S=c1sc2ccccc2n1CCCCN1CCN(C2CCCCC2)CC1 |  | male Sprague-Dawley rat, plasma | intravenous, 5 mg/kg | 1 h
Cc1nc2cccc(OCC(C)(C)C(=O)NC(C)C)c2c(N)c1C(=O)O |  | male Sprague-Dawley rat, plasma | oral gavage, 30 mg/kg, day 1 | 0.88 h
CCc1oc2cc(OC)ccc2c1C(=O)c1cc(Br)c(O)c(Br)c1 |  | Sprague-Dawley rats, male, whole blood | intravenous, 0.5 mg/kg | 1.4 ± 0.6 h

Excerpt of the above:
SMILES | test | system | setting | half-life
S=c1sc2ccccc2n1CCCCN1CCN(C2CCCCC2)CC1 |  | male Sprague-Dawley rat, plasma | intravenous, 5 mg/kg | 1 h
Cc1nc2cccc(OCC(C)(C)C(=O)NC(C)C)c2c(N)c1C(=O)O |  | male Sprague-Dawley rat, plasma | oral gavage, 30 mg/kg, day 1 | 0.88 h
